# Measured values gathered from unrelated publications.
# Numbered parts are unrelated; each lists some results of a single study.
# Sequence of UniProt P07948 (whole entry, looked up): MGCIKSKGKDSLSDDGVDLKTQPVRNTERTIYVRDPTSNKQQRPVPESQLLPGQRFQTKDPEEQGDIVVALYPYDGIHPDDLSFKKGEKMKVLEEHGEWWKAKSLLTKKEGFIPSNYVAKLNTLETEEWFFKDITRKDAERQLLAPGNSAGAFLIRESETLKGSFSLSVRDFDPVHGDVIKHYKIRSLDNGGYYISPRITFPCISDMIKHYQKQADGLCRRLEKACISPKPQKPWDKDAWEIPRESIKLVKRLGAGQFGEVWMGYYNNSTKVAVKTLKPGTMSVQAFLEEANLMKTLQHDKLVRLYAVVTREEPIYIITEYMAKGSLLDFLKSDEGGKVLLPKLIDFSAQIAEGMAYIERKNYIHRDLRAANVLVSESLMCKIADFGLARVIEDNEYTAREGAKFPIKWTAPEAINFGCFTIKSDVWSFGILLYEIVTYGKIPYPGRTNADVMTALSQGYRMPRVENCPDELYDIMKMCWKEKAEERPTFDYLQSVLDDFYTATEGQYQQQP
# Sequence of UniProt Q00536 (whole entry, looked up): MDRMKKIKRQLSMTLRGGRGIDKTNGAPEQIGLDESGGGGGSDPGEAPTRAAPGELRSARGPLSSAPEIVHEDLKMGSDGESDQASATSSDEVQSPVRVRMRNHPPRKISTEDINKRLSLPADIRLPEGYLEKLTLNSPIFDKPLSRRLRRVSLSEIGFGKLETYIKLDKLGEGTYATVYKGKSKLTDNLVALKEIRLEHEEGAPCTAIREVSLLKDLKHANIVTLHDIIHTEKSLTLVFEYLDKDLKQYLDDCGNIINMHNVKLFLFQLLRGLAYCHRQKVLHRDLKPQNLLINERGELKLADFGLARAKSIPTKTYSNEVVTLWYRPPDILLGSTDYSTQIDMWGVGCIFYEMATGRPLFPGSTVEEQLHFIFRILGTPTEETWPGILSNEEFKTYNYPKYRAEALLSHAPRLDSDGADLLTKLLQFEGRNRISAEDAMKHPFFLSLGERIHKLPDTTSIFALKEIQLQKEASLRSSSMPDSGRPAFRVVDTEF
# Sequence of UniProt Q9BYT3 (whole entry, looked up): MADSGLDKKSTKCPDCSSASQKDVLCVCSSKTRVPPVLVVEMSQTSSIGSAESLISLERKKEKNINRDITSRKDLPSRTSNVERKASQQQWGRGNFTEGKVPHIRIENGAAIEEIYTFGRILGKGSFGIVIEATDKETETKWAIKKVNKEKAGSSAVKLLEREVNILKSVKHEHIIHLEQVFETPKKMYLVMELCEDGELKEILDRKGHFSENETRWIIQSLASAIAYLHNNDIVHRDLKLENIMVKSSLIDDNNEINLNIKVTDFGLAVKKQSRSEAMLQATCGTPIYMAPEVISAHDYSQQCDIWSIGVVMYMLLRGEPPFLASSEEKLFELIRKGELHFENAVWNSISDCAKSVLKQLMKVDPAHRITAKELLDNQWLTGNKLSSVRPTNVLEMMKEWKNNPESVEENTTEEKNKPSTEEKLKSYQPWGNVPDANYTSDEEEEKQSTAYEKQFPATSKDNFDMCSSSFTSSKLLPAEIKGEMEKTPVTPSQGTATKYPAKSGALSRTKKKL
# Sequence of UniProt P11802 (whole entry, looked up): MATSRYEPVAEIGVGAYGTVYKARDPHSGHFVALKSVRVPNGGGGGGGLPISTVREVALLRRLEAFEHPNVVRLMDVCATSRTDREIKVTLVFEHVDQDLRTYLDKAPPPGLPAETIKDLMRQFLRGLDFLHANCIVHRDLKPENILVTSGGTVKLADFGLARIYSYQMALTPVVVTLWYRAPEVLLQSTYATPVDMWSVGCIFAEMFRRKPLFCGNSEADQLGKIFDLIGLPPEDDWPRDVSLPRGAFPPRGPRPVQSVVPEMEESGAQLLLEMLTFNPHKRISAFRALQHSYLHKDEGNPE
# Sequence of UniProt P22607 (whole entry, unmodified, looked up): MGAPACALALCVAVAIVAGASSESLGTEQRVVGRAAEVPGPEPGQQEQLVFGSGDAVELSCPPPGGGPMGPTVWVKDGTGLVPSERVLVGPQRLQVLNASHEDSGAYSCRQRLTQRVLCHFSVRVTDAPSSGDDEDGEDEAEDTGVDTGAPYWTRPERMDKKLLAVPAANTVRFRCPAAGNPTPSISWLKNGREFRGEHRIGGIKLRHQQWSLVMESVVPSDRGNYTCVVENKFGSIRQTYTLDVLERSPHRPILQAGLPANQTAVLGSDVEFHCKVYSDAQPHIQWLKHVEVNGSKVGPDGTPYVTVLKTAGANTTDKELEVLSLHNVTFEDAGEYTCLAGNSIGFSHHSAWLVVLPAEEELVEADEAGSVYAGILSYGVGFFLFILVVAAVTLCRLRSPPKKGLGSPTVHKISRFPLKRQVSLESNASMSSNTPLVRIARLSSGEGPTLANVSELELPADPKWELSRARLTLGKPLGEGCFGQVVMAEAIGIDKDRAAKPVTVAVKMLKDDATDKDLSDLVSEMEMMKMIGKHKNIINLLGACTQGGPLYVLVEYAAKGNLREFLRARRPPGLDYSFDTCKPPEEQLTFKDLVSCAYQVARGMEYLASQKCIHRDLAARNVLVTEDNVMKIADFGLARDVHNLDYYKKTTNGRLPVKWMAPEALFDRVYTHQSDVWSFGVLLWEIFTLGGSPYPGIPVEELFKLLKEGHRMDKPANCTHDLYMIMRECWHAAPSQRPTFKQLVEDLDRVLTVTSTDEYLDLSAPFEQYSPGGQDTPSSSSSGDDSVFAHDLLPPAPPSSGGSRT
# Sequence of UniProt O75914 (whole entry, looked up): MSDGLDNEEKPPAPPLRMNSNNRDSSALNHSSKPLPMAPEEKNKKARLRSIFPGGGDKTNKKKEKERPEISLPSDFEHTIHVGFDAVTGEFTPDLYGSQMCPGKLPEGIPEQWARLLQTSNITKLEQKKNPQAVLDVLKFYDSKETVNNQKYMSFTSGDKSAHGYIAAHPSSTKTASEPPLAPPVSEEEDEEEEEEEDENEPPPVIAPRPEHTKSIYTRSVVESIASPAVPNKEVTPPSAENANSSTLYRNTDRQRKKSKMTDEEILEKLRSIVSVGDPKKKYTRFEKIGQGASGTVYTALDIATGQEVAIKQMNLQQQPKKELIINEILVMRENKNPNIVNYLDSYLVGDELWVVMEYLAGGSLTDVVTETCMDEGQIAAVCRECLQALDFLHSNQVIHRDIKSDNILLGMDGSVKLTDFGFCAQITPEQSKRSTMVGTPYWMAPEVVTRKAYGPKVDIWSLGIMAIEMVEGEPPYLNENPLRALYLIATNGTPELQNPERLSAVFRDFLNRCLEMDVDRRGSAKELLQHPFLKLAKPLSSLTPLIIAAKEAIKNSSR
# Sequence of UniProt P53355 (whole entry, looked up): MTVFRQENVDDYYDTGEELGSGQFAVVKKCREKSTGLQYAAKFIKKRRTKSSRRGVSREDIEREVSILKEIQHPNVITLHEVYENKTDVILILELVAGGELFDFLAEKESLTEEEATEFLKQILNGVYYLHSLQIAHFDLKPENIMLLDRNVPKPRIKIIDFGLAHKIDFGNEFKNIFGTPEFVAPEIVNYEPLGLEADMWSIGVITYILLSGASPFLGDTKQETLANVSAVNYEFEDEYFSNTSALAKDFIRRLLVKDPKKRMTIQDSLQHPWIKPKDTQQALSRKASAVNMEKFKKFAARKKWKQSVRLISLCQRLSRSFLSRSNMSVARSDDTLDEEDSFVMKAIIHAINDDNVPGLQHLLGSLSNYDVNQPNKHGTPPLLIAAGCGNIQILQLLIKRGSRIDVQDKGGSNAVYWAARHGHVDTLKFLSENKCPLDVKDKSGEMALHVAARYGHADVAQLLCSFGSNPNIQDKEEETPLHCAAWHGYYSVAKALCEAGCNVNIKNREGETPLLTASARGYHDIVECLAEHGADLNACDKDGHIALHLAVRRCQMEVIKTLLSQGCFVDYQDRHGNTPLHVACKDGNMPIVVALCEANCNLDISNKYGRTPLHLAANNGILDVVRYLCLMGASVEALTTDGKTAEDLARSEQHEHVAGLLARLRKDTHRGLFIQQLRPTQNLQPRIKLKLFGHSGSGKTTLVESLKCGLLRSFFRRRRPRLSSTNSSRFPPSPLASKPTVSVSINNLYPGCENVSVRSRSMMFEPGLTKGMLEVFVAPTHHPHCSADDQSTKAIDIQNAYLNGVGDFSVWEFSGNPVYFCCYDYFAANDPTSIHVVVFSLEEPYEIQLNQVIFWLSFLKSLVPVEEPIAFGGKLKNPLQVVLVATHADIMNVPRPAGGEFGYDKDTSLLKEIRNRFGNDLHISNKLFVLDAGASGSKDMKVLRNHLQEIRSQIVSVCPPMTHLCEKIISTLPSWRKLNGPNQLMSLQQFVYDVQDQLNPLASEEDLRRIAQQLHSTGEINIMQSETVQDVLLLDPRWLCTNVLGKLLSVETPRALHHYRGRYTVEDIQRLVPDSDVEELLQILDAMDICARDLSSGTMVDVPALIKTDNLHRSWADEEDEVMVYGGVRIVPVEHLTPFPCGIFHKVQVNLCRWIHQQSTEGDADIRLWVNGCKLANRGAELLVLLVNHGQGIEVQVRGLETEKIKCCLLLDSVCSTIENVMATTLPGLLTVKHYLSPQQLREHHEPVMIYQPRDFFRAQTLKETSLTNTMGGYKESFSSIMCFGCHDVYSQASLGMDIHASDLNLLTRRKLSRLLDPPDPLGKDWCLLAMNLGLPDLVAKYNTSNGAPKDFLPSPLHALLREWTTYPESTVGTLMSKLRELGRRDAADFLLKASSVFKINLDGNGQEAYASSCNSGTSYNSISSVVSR
# Sequence of UniProt O15264 (whole entry, looked up): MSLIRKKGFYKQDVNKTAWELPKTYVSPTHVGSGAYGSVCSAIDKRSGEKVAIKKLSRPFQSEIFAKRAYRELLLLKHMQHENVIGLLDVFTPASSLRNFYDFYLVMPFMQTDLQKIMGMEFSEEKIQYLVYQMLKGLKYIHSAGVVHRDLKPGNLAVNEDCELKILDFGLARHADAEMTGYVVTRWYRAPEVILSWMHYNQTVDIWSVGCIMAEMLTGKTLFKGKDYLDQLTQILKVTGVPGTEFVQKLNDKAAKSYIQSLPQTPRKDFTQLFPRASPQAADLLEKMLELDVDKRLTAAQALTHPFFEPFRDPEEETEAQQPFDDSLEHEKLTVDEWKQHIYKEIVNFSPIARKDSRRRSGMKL

# Block 1 — SMILES: CC(C)(O)c1cncc(-c2nc3ccc(F)cc3n2C2CC2)c1; method: competition with immobilised ligand; concentration: 1 µM
target,test,remaining binding
"Ribosomal protein S6 kinase alpha-5, N-terminal kinase domain (RPS6KA5, Homo sapiens, UniProt O75582)",cell-free assay,100%
"Phosphatidylinositol 4,5-bisphosphate 3-kinase catalytic subunit alpha isoform (PIK3CA, Homo sapiens, UniProt P42336, C420R)",cell-free assay,96%
"Testis-specific serine/threonine-protein kinase 1 (TSSK1B, Homo sapiens, UniProt Q9BXA7)",cell-free assay,97%
"Serine/threonine-protein kinase D2 (PRKD2, Homo sapiens, UniProt Q9BZL6)",cell-free assay,100%
"Serine/threonine-protein kinase PAK 3 (PAK3, Homo sapiens, UniProt O75914)",cell-free assay,100%
"Serine/threonine-protein kinase 25 (STK25, Homo sapiens, UniProt O00506)",cell-free assay,100%
"Fibroblast growth factor receptor 3 (FGFR3, Homo sapiens, UniProt P22607, G697C)",cell-free assay,100%
"Receptor tyrosine-protein kinase erbB-2 (ERBB2, Homo sapiens, UniProt P04626)",cell-free assay,100%
"Mitogen-activated protein kinase 13 (MAPK13, Homo sapiens, UniProt O15264)",cell-free assay,100%
"Dual specificity protein kinase CLK3 (CLK3, Homo sapiens, UniProt P49761)",cell-free assay,100%
"Serine/threonine-protein kinase MARK2 (MARK2, Homo sapiens, UniProt Q7KZI7)",cell-free assay,100%
"Serine/threonine-protein kinase Nek9 (NEK9, Homo sapiens, UniProt Q8TD19)",cell-free assay,100%
"Dual specificity tyrosine-phosphorylation-regulated kinase 1B (DYRK1B, Homo sapiens, UniProt Q9Y463)",binding,44%
"Peripheral plasma membrane protein CASK (CASK, Homo sapiens, UniProt O14936)",cell-free assay,89%
"Serine/threonine-protein kinase SIK3 (SIK3, Homo sapiens, UniProt Q9Y2K2)",cell-free assay,97%
"Tyrosine-protein kinase BTK (BTK, Homo sapiens, UniProt Q06187)",cell-free assay,83%
"Cyclin-dependent kinase 16 (CDK16, Homo sapiens, UniProt Q00536)",cell-free assay,100%
"Interleukin-1 receptor-associated kinase 4 (IRAK4, Homo sapiens, UniProt Q9NWZ3)",cell-free assay,100%
"Ephrin type-A receptor 6 (EPHA6, Homo sapiens, UniProt Q9UF33)",cell-free assay,100%
"Cyclin-dependent kinase 3 (CDK3, Homo sapiens, UniProt Q00526)",cell-free assay,100%
"Dual specificity mitogen-activated protein kinase kinase 3 (MAP2K3, Homo sapiens, UniProt P46734)",cell-free assay,100%
"Phosphorylase b kinase gamma catalytic chain, skeletal muscle/heart isoform (PHKG1, Homo sapiens, UniProt Q16816)",cell-free assay,100%
"Serine/threonine-protein kinase 33 (STK33, Homo sapiens, UniProt Q9BYT3)",cell-free assay,100%
"Ephrin type-A receptor 3 (EPHA3, Homo sapiens, UniProt P29320)",cell-free assay,100%
"5'-AMP-activated protein kinase catalytic subunit alpha-2 (PRKAA2, Homo sapiens, UniProt P54646)",cell-free assay,100%

# Block 2 — method: phase 2a trial; host: patients with IPF
# SMILES: CC(C)n1cnc(-c2ccc(F)cc2)c1-c1ncc(C(=O)Nc2ccc(N3CCN(C)CC3)cc2)[nH]1
setting,share of patients with TEAE
"30 mg once daily, skin and subcutaneous disorders, grade 2",0%
"dose not given, upper respiratory infection, grade 4, pooled arms",0%
"dose not given, skin disorders, grade 4, pooled arms",0%
"60 mg once daily, skin and subcutaneous disorders, grade 3",0%
"60 mg once daily, skin and subcutaneous disorders, grade 4",0%
"30 mg once daily, skin and subcutaneous disorders, grade 5",0%
"dose not given, upper respiratory infection, grade 1, pooled arms",0%

# Block 3 — read-out: enzyme activity; action: inhibitor; concentration: 1 µM
# Structure (SMILES): CC(C)S(=O)(=O)c1ccc2nccc(Nc3ccc4sc(C5CCCC5)nc4c3)c2c1
target,activity vs control [%]
"Myosin light chain kinase, smooth muscle (MYLK, Homo sapiens, UniProt Q15746)",95
"MAP kinase-activated protein kinase 2 (MAPKAPK2, Homo sapiens, UniProt P49137)",89
"Protein kinase C epsilon type (PRKCE, Homo sapiens, UniProt Q02156)",94
"LIM domain kinase 2 (LIMK2, Homo sapiens, UniProt P53671)",85
"Serine/threonine-protein kinase 35 (STK35, Homo sapiens, UniProt Q8TDR2)",99.5
"Tyrosine-protein kinase Lyn (LYN, Homo sapiens, UniProt P07948)",95

# Block 4 — read-out: enzyme activity; action: inhibitor; concentration: 0.5 µM; reference: control
# Structure (SMILES): CCCC(=O)Oc1ccc2[nH]c(C(=O)c3cc4ccccc4[nH]3)cc2c1
target,remaining activity [%]
"cGMP-dependent protein kinase 1, isoform beta (PRKG1, Homo sapiens, UniProt Q13976)",104
"Mitogen-activated protein kinase kinase kinase 3 (MAP3K3, Homo sapiens, UniProt Q99759)",91.9
"STE20/SPS1-related proline-alanine-rich protein kinase (STK39, Homo sapiens, UniProt Q9UEW8)",117
"G protein-coupled receptor kinase 3 (GRK3, Homo sapiens, UniProt P35626)",101
"Death-associated protein kinase 1 (DAPK1, Homo sapiens, UniProt P53355)",85.8
"Cyclin-dependent kinase 4, with cyclin D1 (CDK4, Homo sapiens, UniProt P11802)",106
"Serine/threonine-protein kinase STK11 (STK11, Homo sapiens, UniProt Q15831)",101
"TGF-beta receptor type-1 (TGFBR1, Homo sapiens, UniProt P36897)",101
"Inhibitor of nuclear factor kappa-B kinase subunit epsilon (IKBKE, Homo sapiens, UniProt Q14164)",91.4
"Calcium/calmodulin-dependent protein kinase kinase 2 (CAMKK2, Homo sapiens, UniProt Q96RR4)",84.6
"TGF-beta receptor type-2 (TGFBR2, Homo sapiens, UniProt P37173)",101
"Serine/threonine-protein kinase 10 (STK10, Homo sapiens, UniProt O94804)",94.3
"cAMP-dependent protein kinase catalytic subunit alpha (PRKACA, Homo sapiens, UniProt P17612)",96.6
"Death-associated protein kinase 2 (DAPK2, Homo sapiens, UniProt Q9UIK4)",88.4
"Protein kinase C alpha type (PRKCA, Homo sapiens, UniProt P17252)",102
"Calcium/calmodulin-dependent protein kinase type II subunit delta (CAMK2D, Homo sapiens, UniProt Q13557)",111
"Serine/threonine-protein kinase OSR1 (OXSR1, Homo sapiens, UniProt O95747)",92.4
"Inhibitor of nuclear factor kappa-B kinase subunit beta (IKBKB, Homo sapiens, UniProt O14920)",98.7
"Mitogen-activated protein kinase 9 (MAPK9, Homo sapiens, UniProt P45984)",76
"Protein kinase C beta type, isoform beta-I (PRKCB, Homo sapiens, UniProt P05771)",97.3
"Tyrosine-protein kinase Lyn, isoform B (LYN, Homo sapiens, UniProt P07948)",103
"Cyclin-dependent kinase 5, with p25 (CDK5, Homo sapiens, UniProt Q00535)",90.1
"Serine/threonine-protein kinase Chk2 (CHEK2, Homo sapiens, UniProt O96017)",99

# Excerpt of the above (block 4):
target,remaining activity [%]
"cGMP-dependent protein kinase 1, isoform beta (PRKG1, Homo sapiens, UniProt Q13976)",104
"Death-associated protein kinase 2 (DAPK2, Homo sapiens, UniProt Q9UIK4)",88.4
"Inhibitor of nuclear factor kappa-B kinase subunit beta (IKBKB, Homo sapiens, UniProt O14920)",98.7
"Serine/threonine-protein kinase OSR1 (OXSR1, Homo sapiens, UniProt O95747)",92.4
"cAMP-dependent protein kinase catalytic subunit alpha (PRKACA, Homo sapiens, UniProt P17612)",96.6
"Serine/threonine-protein kinase 10 (STK10, Homo sapiens, UniProt O94804)",94.3
"G protein-coupled receptor kinase 3 (GRK3, Homo sapiens, UniProt P35626)",101
"Protein kinase C beta type, isoform beta-I (PRKCB, Homo sapiens, UniProt P05771)",97.3
"Calcium/calmodulin-dependent protein kinase type II subunit delta (CAMK2D, Homo sapiens, UniProt Q13557)",111
